Assay results collected from several papers.
Every numbered part comes from another study and shows a few of its results, in no order.

Series 1
Target: Hepatocyte nuclear factor 3-alpha (Foxa1, Mus musculus, UniProt P35582, residues 1-468, full length assumed)
Method: EMSA with sequencing
Form: double-stranded DNA, one strand shown
Sample: in vitro
Tested at: 10 and 20 nM
Setting: whole designed probe, mean of two concentrations, ends assumed
Reference: negative control set to 0
Reading: higher = stronger binding
All sequences stand within: GTGAGCGGTGCCCATTGATGGGGAAC … TTTCACTGGGATCGTGGGGAC
Residues (chain): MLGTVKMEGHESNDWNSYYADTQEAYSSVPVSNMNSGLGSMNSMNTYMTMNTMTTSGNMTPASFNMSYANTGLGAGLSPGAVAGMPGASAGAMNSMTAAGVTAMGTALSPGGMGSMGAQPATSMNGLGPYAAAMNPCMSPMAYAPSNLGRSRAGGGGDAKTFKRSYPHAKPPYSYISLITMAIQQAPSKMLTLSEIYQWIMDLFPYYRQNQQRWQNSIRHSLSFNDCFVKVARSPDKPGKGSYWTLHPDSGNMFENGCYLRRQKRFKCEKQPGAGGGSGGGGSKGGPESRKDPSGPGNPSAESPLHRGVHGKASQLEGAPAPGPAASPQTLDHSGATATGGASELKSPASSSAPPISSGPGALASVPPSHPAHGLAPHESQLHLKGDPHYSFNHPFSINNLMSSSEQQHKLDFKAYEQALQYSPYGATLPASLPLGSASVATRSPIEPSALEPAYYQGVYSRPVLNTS
| Sequence | normalised bound fraction [ratio] |
| --- | --- |
| CTTACAGTACTGCAAGTTGCTCTAGGTGAGTCAGTGAGTGGTAAGTGAATGTGAAGGCCTAGGTTGTTACTGTGCTGTAGACTTTATAGACATTGTGTACTTAGACGACAATACATTTTTATTTTTATTATTATTTTTGAGACAGAATCTTGCTCTGTTGCCCAGACTAGAGTGCAGTGGTGCAATCTTGGCT | 0.269 |
| ATCCACGAACCTGGCCCTGTCTGGTAACCACAGTGAACCATCGCAAGATACAGCACTATGTGCCCAGTTGTAATGACTCACGGCTGGAACCAGTGTTGACACATCACATCCTCAGGGACACGGAAGTGTACTTGTTTTTGGAGAGGGACTAGACCTTCATCCTTGAGGTGAAGAAGATTTTCTCTCCAGGGTG | 0.104 |
| ATCTTCCCCCTCTTCCTTGCCCCACCAGCTCACCTTCCCGGGTTATTTGCAGATAGGAAAATAAATAAAGCCGGCATTCGTTAACCCTCTTCACGCGCATACTGCCAGAGCAAACAGATCTAACATGGTCCTTTGGGATGAATCATGTCCGGGAGAGCAAAGCACCGTGTCAGGGCCATGATCCGGGGTGGCC | 0.386 |
| CTCCGGTCTAGTAGGAGATGACCATGGTCAAGGAGACACGTGCTCCCCAGGGTGGAGGGCTGGAGTCCCAAAGCAGGAATGCTATGTTTTGTTGTTTACTCTGAAGAACCCCGGAGATTCATTAGGAAACAGGGCATGTGCTCCCGGGACATTTGGAAAATCAAATTTGAAAATATATATATATATTCACTGG | 0.293 |
| CTGCGGATCACCCCAAGGAAAATCCAGACTGATTCGATCAGTCCTAGCTGGAAGCAGCACAGGAATAGCAGGAAGCCTATGACTCATTTTAAGCAATCTTCCGGTAACCCGACTGGTATCTGGTTCAAATGGGGAAACCTGAAGCACCTATGACAGGCCAGGCCCAGAGAAGATACTGCCCAGATGGATACAG | -0.1 |
| TTTCAGTAGGTGGTAGTGGGTTCAGGAAATCTGTGTTTTTACCAAAGTATCCCCTACTATAGAATTAATTTTTGTGTTCCCCCCTCATTCATATGTTGACATTTAAACCTCCACTGTGATGATACCAGGTGGCTTTGGGAGGTGATTAGGTGATAACGATGAAGCCCTCATAAATGTGATTACTGACCTAATA | 0.128 |

Series 2
Target: Prothrombin, mature alpha-thrombin (F2, Homo sapiens, UniProt P00734)
Method: aptamer microarray, sandwich
Form: DNA with 2'F-ANA
Sample: in vitro
Tested at: 200 nM
Setting: whole 15-mer aptamer, many near background
Together with: Cy3 exosite-II aptamer, 400 nM
Reading: higher = stronger binding
Sequence: GGTTGGTGTGGTTGG
| Modification | mean fluorescence intensity |
| --- | --- |
| 2'F-ANA at 1 4 5 7 9 10 12 | 45.9 a.u. |
| 2'F-ANA at 1 8 10 12 14 15 | 51.8 a.u. |
| 2'F-ANA at 1 4 5 6 7 10 | 76.8 a.u. |
| 2'F-ANA at 9 10 15 | 175 a.u. |
| 2'F-ANA at 4 5 6 7 11 12 13 14 15 | 51.3 a.u. |
| 2'F-ANA at 1 2 4 6 7 9 12 13 15 | 134 a.u. |
| 2'F-ANA at 1 3 4 6 7 8 9 11 12 | 326 a.u. |
| 2'F-ANA at 2 3 6 7 8 10 14 | 337 a.u. |
| 2'F-ANA at 2 5 7 12 13 15 | 106 a.u. |
| 2'F-ANA at 1 2 4 5 9 11 12 13 14 15 | 76.2 a.u. |
| 2'F-ANA at 1 2 4 6 7 8 9 10 | 53.5 a.u. |
| 2'F-ANA at 1 5 6 8 13 | 52.9 a.u. |
| 2'F-ANA at 1 3 4 5 6 8 9 11 12 14 15 | 48.7 a.u. |
| 2'F-ANA at 2 8 11 15 | 380 a.u. |
| 2'F-ANA at 3 7 13 15 | 1040 a.u. |
| 2'F-ANA at 1 2 3 4 7 9 11 12 15 | 245 a.u. |
| 2'F-ANA at 7 8 9 12 15 | 865 a.u. |
| 2'F-ANA at 2 7 8 10 11 12 14 | 91.9 a.u. |
| 2'F-ANA at 1 2 3 5 7 8 11 12 13 | 79.8 a.u. |
| 2'F-ANA at 1 2 4 9 10 12 13 14 | 50.9 a.u. |
| 2'F-ANA at 3 4 7 8 9 12 13 | 805 a.u. |
| 2'F-ANA at 1 2 3 4 7 10 11 12 13 | 61.9 a.u. |
| 2'F-ANA at 1 2 5 6 8 9 10 12 | 65.9 a.u. |
| 2'F-ANA at 1 6 7 8 9 10 11 12 14 15 | 78.9 a.u. |
| 2'F-ANA at 1 2 3 4 8 10 11 | 55.8 a.u. |

Series 3
Target: Histone acetyltransferase KAT6A, winged helix 2, GST fusion (KAT6A, Homo sapiens, UniProt Q92794, residues 85-181)
Method: protein binding microarray
Form: double-stranded DNA, one strand shown
Sample: in vitro
Tested at: not given
Setting: 8-mer, flanks averaged, mean of 2 arrays, mostly near background
Reference: not given
Reading: higher = stronger binding
Construct (chain): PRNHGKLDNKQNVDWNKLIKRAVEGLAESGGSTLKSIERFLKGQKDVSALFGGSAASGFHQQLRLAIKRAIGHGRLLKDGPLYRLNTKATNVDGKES
| Sequence | E-score |
| --- | --- |
| CAGAGCGA | 0.175 |
| AAACGTCA | -0.203 |
| CAAGCTGG | -0.0592 |
| ATTTTTGC | -0.0264 |
| AATGCTAG | -0.221 |
| AGAACATG | 0.105 |
| ACCTCCTC | -0.0618 |
| GACGTTGC | 0.124 |
| TCTCCGCA | 0.0887 |
| CCTACAGC | -0.183 |
| GAAGACGC | -0.0172 |
| GATAAAAC | 0.196 |
| CTCGTGAC | -0.0407 |
| ACTAGTCA | -0.233 |
| ACCCGCAT | 0.125 |
| AATAGTAG | 0.0197 |
| CCTTATCC | -0.042 |
| GATTGCAA | 0.00106 |
| AAACTAAC | 0.00594 |
| CAACCGCG | 0.217 |
| AACATTAA | -0.114 |
| CCCCCAAC | 0.019 |
| CTTGTGTA | -0.0842 |
| AATTCACT | 0.0751 |
| GCAACAGA | 0.0929 |

Series 4
Target: RNA binding protein fox-1 homolog 2, RRM domain, GST-SBP tag (RBFOX2, Homo sapiens, UniProt O43251-10, residues 100-194)
Method: RNA Bind-n-Seq
Form: RNA
Sample: in vitro
Tested at: 365 nM
Setting: natural RNA segment, single round, ends assumed
Reference: no-protein control
Reading: higher = stronger binding
All sequences stand within: GGGAGUUCUACAGUCCGACGAUC … UGGAAUUCUCGGGUGCCAA
Residues (chain): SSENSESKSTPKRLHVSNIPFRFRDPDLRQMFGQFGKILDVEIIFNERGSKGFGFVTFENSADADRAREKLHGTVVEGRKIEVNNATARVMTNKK
| Sequence | RBNS enrichment (R) |
| --- | --- |
| GGCUACCUGUUUGUGUGGCACAAGGACCCUCCUGCCAACCUGUUUGAAGACAUGGACCUCAACAAGGAUGGCGAGGUCCCUCCGGAGGAGGUCUCCACCUUCAUCAAGGC | 0.281 |
| UCCUGUGUUUGAUGUAUAUUACAUAGAGUCUUAAGUCAGUGUACAGUUCCACUGGAAUUUGACAGUUGUCUCUACAGUCAUGCAACUCGAAGUAGAAAAGAGUGCUGGAC | 0.726 |
| CUCCAAUGCCAAUUCUUUGGUUUCUUCUUCUUGGCAGUGUUGAAGCUAGAACUCAGGGCGCUGAAUACUAAGCAAGCAUUCUUCCGGGAGCCAUAUUCGCAGUCUUCGUU | 0.538 |
| CUUGGGGAUUUUCCAUCUGACUUCCCUGGCCAUCUUAUCCCAUCCUUGCACUACCAGAAGAUUCAUACACUUUUGAGACUCCAGUGAGACGCUGUUUUCACCCCUUCCUC | 0.666 |
| GCAGAGUCACUAGUGGAUGCUGAAGUUACAUGAGCUACAUGUUAAAUAUUUAAAGUCUCCAAAAUAAAACACCCCAACGUUGACCUUACCCGGCUGAUGGUUAGCCCCUU | 0.406 |
| UAAAACUAUGGAACCUCCUCUGGCCCCACCCCCUUAUCUUUCCCUACUGUUCAUUGUAAAGGGUCAGGCCCUAUCAGCAGCACUGAUGGGAAUAAAAGUAUUAUUGCUUU | 0.402 |
| UCAGAUGAGGACCUCCUGGAUAGCUCUUCAGAGGAGCUGGGACUGCGUGUGCGUGGAGCCACAGUACCUCCUACACUCCCUGAGGCUCCGACUUGGGGAAAUAAAUUUCC | 0.317 |
| GUGGCUGGAUGUUCUCACGCCUGGCUCCGUUCUGCCUGUCUGGAGGCCUGGUCUGCUGGUCCACCUUCUUGACUGAAGAUUGGGUGUUUUCCAUAUUCUGGGAACAUUUU | 0.297 |
| UACAUGUCCUGUGUCCUGGGGACUAAUGUGUUAAUUGCCUUAAAUAAAUUAAUAGACUCCAAGUCCAUCCACAGGGUCAUACUUCUGUCUCCCGCACAGCUGGAGGCCAC | 0.332 |
| GUCUUAAAGAGUUCAAAACCUUGGAACCCAGUUUUCUCACUACGUCUAUAAAGGCCAUUACAGACCCAAGGCUGUUUUGCAGUUUUCAUAUGUUGUUUGCUGAAGUCAUU | 0.555 |
| UUGCUACAAGCUAUAGCUAAUGUGCUGAGCUUGUGCCUUGGUGAUUGAUUGAUUGAUUGACUGAUUGUUUUAACUGAUUACUGUAGAUCAACCUGAUGAUUUGUUUGUUU | 2.5 |
| UUUUCAGACAGACUGUUUGCUUUCUGCUGAGAUAAGGAAUGCAUCACUCUGCCAGAGUAUGACUUUUUACAGAUUAUUAAAUAAAGCUGCAUAUGUCUCAUUGUUACCUG | 0.314 |
